Assay results of several laboratories.
A part holds a random share of what one study measured. Substitutions count along the parent as printed.

Series 1
Target: CCND3, cyclin fold, Cln2 fusion (human)
Technique: yeast growth competition, sequencing
Sample: yeast
Notes: weak parent motif
Baseline: not given
Direction: higher = stronger binding
Starting sequence: CDC25A docking peptide (human); PPHRRRLLFACSP
Under “normalised enrichment score”, `H3D` is recorded as 0.241.
`R5E`: “normalised enrichment score” 0.0933.
For `A10N`, “normalised enrichment score” read 0.131.
`R4G` — result for “normalised enrichment score”: 0.167.
`R6Q` — result for “normalised enrichment score”: 0.185.
`P1F`: “normalised enrichment score” 0.0653.
`P2I`: “normalised enrichment score” 0.145.
Under “normalised enrichment score”, `F9K` is recorded as 0.156.
For `P2D`, “normalised enrichment score” read 0.0763.
For `A10D`, “normalised enrichment score” read 0.0931.
Under “normalised enrichment score”, `C11D` is recorded as 0.0464.
`C11P` — result for “normalised enrichment score”: 0.146.
`S12E` — result for “normalised enrichment score”: 0.155.
For `P1G`, “normalised enrichment score” read 0.125.
`H3I` — result for “normalised enrichment score”: 0.117.
Under “normalised enrichment score”, `R6L` is recorded as 0.121.
`P2A` — result for “normalised enrichment score”: 0.165.
Under “normalised enrichment score”, `R6C` is recorded as 0.0809.

Series 2
Target: RNA binding protein fox-1 homolog 2, RRM domain, GST-SBP tag (RBFOX2, Homo sapiens, UniProt O43251-10, residues 100-194)
Technique: RNA Bind-n-Seq
Molecule type: RNA
Sample: in vitro
Tested at: 365 nM
Notes: natural RNA segment, single round, ends assumed
Baseline: no-protein control
Direction: higher = stronger binding
Construct (chain): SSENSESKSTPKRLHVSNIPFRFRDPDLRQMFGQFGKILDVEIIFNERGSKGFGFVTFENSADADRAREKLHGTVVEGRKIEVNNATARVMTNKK
Under “RBNS enrichment (R)”, `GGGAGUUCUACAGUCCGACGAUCCGGUGGGUGGCCGUGGGCCACCUUCCCUGCAAUGGGUGCACACGCGGCUCCCAUCCAGCCCUCUCAGCGUGGGGCUGUGGCUGGUCCUCACUAUUCCCCAGUCUCCCGCUUGGAAUUCUCGGGUGCCAA` is recorded as 0.297.
`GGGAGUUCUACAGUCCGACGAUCCCAUCCUCACACCCACUCAUCUCUGAGGAGCUAUGAACUGGUUUUGGUCCCUCUAAUGAUCCUCCAGCCUCAUCUAAUGCCCCCCAAAGACUGAUACAAGUAACCUCCCCUGGAAUUCUCGGGUGCCAA`: “RBNS enrichment (R)” 0.425.
For `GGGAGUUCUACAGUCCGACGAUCCAGUGACUUUUACACACUCUCACACACACACACACACACAAAAUCUGUUCACAGUUUCUGUGUCUUUGGGUUCCUCCUUUUUCCAAGAGAAAAGGAUGUGACUGCCCAUCUGGAAUUCUCGGGUGCCAA`, “RBNS enrichment (R)” read 0.453.
`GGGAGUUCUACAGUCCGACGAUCGCAUUCCCCCCAAGUUUAUUUCUACUUUCCAGAAACAAGCCACGGGAAGGGAAGGAACCUGCAGCAGGGUUUCGAAGACAGCCAGGCCCUCCGUGAUUGAGGGCUCAUAUUGGAAUUCUCGGGUGCCAA`: “RBNS enrichment (R)” 0.244.
For `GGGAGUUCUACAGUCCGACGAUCCCUUUAUGUGAGAAAUCCAAGAAAGUGUUCACUUUUUUGGGAUGCGAGACUCCUUGGUCUCAUUUGCCUUCACUUUGCAUUUGUUAGUGACCUCCACUAACCCCCACUUCUGGAAUUCUCGGGUGCCAA`, “RBNS enrichment (R)” read 0.65.
`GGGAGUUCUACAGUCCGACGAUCCCCCAGACCUGCACUGCCUUUGAGCUGGGUCCUAAUUGCACAUGGCUUGUGACGAAUGAAUCUUGCAUUUUUUAGUGAUCGGAGAAGGGAUGGAUCAUAGGAUUCUGAUUUGGAAUUCUCGGGUGCCAA`: “RBNS enrichment (R)” 1.13.
For `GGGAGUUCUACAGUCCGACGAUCCCUGGGUCAUUUUAACAAGGGUGAGGUAUUUAGCAUCAAAUAAAAAGAUUGUAGUCAGCAUUUCAUUUGAGAGAAUACAAGAAAUGAAUAAAUCUAUUAGGGCCAGGGCCUGGAAUUCUCGGGUGCCAA`, “RBNS enrichment (R)” read 2.23.
`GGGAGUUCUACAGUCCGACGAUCAAGUUUAGUUUAAUGUUAGUGCAGUGACAGGAAAUACACAUUAUGCUGAUGUUGAUGACAGAAUUUAUUUGGUUGCCUUGUGUGUCAAUUGAAUGCAUACUAAACUGUAAUGGAAUUCUCGGGUGCCAA`: “RBNS enrichment (R)” 0.856.
`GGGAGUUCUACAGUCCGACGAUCGUUCCAAUAAAACUUUAUUUAUGGACACUAAAAUUUGAAUUUCAUAAAAUUUUCCCAUGUCAAGAAUACAAAAUACUUGAGUUUUGUUUUUAGCUAUUUAAUAAUAGGUCUGGAAUUCUCGGGUGCCAA`: “RBNS enrichment (R)” 0.502.
`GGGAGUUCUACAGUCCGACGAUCUCCCUCUGGACUCAGAGGGAACAAGGUGGGAGAGAGAGUUUGAGACAGCUCCGUGUGGAGAGCUUAGCCCCUGGAGGCAGCACAAGGAGGAUGUGAUAUGUGGGGGAGUGUGGAAUUCUCGGGUGCCAA` — result for “RBNS enrichment (R)”: 2.05.
`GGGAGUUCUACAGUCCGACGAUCGACAUUUAUUACAAUGAGCUGCUGCACUCCUACUUUUAUAAAUUUUACUAACAAGUAGACUAAUGUAGACAUUCACAGACGGGAUAGCGCAGAAGCAUCUUCACACGACAUGGAAUUCUCGGGUGCCAA`: “RBNS enrichment (R)” 1.05.
Under “RBNS enrichment (R)”, `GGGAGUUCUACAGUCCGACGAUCUGGACAAGUAAUUCCUGGGGUUCUGUCUUUGGUAGCAUCACCAGGGAUAUUUGGGUGGGACAGACAGAAGACACACAGCUGCCUGUUCUCUCCUGCCCAUCAUGUUUGGCUGGAAUUCUCGGGUGCCAA` is recorded as 0.409.

Series 3
Target: Protein C-ets-1 (ETS1, Homo sapiens, UniProt P14921, residues 1-441, full length assumed)
UniProt P14921, sequence (whole entry, looked up): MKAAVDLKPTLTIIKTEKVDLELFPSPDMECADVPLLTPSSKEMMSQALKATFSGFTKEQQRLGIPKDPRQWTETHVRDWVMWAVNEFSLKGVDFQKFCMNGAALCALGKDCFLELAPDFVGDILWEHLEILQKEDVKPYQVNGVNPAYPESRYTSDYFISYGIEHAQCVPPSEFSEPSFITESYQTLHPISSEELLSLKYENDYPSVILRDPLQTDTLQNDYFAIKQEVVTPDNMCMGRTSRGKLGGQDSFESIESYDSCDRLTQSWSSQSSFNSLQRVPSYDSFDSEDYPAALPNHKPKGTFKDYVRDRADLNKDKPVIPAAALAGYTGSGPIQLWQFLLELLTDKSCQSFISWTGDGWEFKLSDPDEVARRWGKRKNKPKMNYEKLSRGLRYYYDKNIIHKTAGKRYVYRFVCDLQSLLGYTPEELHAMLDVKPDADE
Technique: protein-binding microarray
Molecule type: double-stranded DNA, one strand shown
Sample: in vitro
Tested at: not given
Notes: k-mer, scored over probes, only values ≥0.25
Direction: higher = stronger binding
With `ATCCATCC` the E-score was 0.335.
`AGGTTTCC` gave an E-score of 0.356.
For `CCAGGATA`, the E-score was 0.347.
`AGTCATCC` has an E-score of 0.251.
`CCCGGAAA` gave an E-score of 0.482.
With `CGCGGATA` the E-score was 0.3.
`CGGACGTC` has an E-score of 0.424.
For `CCGGCAGC`, the E-score was 0.254.
`ACCGGGAC` has an E-score of 0.273.
`CGTCCGCA` gave an E-score of 0.345.
For `AGAGGAAG`, the E-score was 0.431.
With `GTGAGGAA` the E-score was 0.263.
`CTTGCGGA` has an E-score of 0.267.
`AGACTTCC` has an E-score of 0.464.
With `ATTTCCGC` the E-score was 0.478.
`GGATGCAA` gave an E-score of 0.386.
The E-score of `ACTTTCCT` is reported as 0.261.
The E-score of `CAATTCCG` is reported as 0.305.
`ACCGGATC` gave an E-score of 0.438.

Series 4
Target: Sal-like protein 4, full length isoform A (SALL4, Homo sapiens, UniProt Q9UJQ4, residues 1-1053)
UniProt Q9UJQ4, sequence (whole entry, looked up): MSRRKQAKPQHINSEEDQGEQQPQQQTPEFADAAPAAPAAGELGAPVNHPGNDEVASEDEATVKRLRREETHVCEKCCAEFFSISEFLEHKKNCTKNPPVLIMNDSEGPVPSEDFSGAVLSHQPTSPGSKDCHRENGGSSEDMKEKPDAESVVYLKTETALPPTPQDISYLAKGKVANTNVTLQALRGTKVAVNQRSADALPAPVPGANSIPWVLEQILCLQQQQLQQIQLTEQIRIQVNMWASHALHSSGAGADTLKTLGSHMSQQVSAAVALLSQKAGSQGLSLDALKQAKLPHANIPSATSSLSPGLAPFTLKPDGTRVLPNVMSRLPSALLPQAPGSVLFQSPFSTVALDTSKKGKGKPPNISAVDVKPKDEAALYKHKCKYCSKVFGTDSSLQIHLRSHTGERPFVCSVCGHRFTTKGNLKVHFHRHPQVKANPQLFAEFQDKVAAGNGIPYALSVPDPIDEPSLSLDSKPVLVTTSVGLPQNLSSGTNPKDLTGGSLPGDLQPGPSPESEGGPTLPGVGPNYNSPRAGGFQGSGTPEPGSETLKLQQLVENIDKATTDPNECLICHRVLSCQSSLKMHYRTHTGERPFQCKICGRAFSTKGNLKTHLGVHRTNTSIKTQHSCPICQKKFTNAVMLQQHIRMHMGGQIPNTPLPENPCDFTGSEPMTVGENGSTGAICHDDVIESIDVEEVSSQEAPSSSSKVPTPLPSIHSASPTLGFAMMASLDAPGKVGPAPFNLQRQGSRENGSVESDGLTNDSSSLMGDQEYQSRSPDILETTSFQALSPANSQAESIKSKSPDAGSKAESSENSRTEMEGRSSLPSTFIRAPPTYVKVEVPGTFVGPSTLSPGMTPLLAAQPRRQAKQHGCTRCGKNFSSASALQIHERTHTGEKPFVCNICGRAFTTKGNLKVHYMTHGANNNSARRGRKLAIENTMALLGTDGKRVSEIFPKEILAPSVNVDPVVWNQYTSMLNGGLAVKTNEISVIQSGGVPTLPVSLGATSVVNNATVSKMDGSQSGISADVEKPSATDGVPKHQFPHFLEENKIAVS
Technique: universal PBM
Molecule type: double-stranded DNA, one strand shown
Sample: in vitro
Tested at: 600 nM
Notes: 8-mer, flanks averaged, mean of replicates
Direction: higher = stronger binding
`ACAAAGTA` has an E-score of 0.211.
`ATCGCACA` gave an E-score of 0.154.
For `GCGTATTA`, the E-score was 0.213.
`CCACCTGG` has an E-score of -0.335.
`TTGTCAAA` gave an E-score of 0.317.
With `CGCGCCGC` the E-score was -0.285.
For `ATCGTACA`, the E-score was 0.276.
`ATCAACGA` has an E-score of 0.0462.
For `AGCTGGAG`, the E-score was -0.171.
`AACTTTCA` gave an E-score of 0.197.
`CTACGGAG` has an E-score of -0.133.
The E-score of `ACTAGTCC` is reported as -0.044.
With `AAAAATGC` the E-score was 0.173.
With `AGCACTTC` the E-score was 0.0571.
The E-score of `ATCACAAG` is reported as 0.145.
The E-score of `TAGACAGA` is reported as 0.0515.
The E-score of `TCACAACA` is reported as 0.184.
For `AAACACAT`, the E-score was 0.164.
`ACGGAGGG` gave an E-score of -0.178.
`ATATAGGC` has an E-score of 0.278.
For `AGGACGTC`, the E-score was -0.0851.
For `CTGTTCTC`, the E-score was -0.0875.
For `AAGACAGC`, the E-score was -0.141.
With `AATGCCTC` the E-score was -0.0395.
`AAGGATTG` has an E-score of 0.127.
